Measurements gathered from unrelated publications.
Protocols differ between the studies behind these lines. ± gives the spread as reported.
Organism: Candida albicans

The IC50 of CC(=NNC(=S)N1CCCCCC1)c1ccccn1 is reported as 1240 nM (biofilm formation, XTT; SC5314; 24 h, 37 °C).
CC[C@H](C)C[C@H](C)CCCCCCCCC(=O)N[C@H]1C[C@@H](O)[C@@H](NCCN)NC(=O)[C@@H]2[C@@H](O)CCN2C(=O)[C@H]([C@H](O)CCN)NC(=O)[C@H]([C@H](O)[C@@H](O)c2ccc(O)cc2)NC(=O)[C@@H]2C[C@@H](O)CN2C(=O)[C@H]([C@@H](C)O)NC1=O has an MIC of 0.2 µg/mL (ATCC 90028, RPMI 1640, 0.165 M MOPS; 24 h, 35 °C, 100% inhibition endpoint).
The MIC of O=C(NCc1ccc2c(c1)OCO2)c1ncc(Br)cc1F is reported as 100 µM (microbial growth; ATCC10231; 72 h).
CC(C)[C@@H]1NC(=O)[C@H](C)OC(=O)[C@@H](C(C)C)NC(=O)[C@@H](C(C)C)OC(=O)[C@H](C(C)C)NC(=O)[C@H](C)OC(=O)[C@@H](C(C)C)NC(=O)[C@@H](C(C)C)OC(=O)[C@H](C(C)C)NC(=O)[C@H](C)OC(=O)[C@@H](C(C)C)NC(=O)[C@@H](C(C)C)OC1=O has an IC50 of 363 nM (biofilm formation, XTT; SC5314; 24 h, 37 °C).
The MIC of CC[C@H](C)[C@H](NC(=O)[C@H](CCCCN)NC(=O)[C@H](CCCCN)NC(=O)[C@@H](NC(=O)[C@@H](NC(=O)[C@H](CC(=O)O)NC(=O)[C@H](Cc1ccccc1)NC(=O)[C@H](CC(C)C)NC(=O)CN)[C@@H](C)CC)[C@@H](C)CC)C(=O)N[C@@H](C)C(=O)N[C@@H](CCC(=O)O)C(=O)N[C@@H](CO)C(=O)N[C@@H](Cc1ccccc1)C(N)=O is reported as 32 µg/mL (broth microdilution, XTT; SC5314; 48 h, pH 7.4, 37 °C, over 90% growth inhibition, RPMI).
With c1cnc2c(c1)ccc1cccnc12 the IC50 was 3350 nM (biofilm formation, XTT; SC5314; 24 h, 37 °C).
CC[C@H](C)[C@H](NC(=O)[C@H](CCCCN)NC(=O)[C@H](CCCCN)NC(=O)[C@H](CC(C)C)NC(=O)[C@@H](NC(=O)[C@H](CCCCN)NC(=O)[C@H](C)NC(=O)[C@H](C)NC(=O)[C@@H](NC(=O)CNC(=O)[C@H](C)NC(=O)[C@@H](NC(=O)[C@H](CCCCN)NC(=O)[C@@H]1CCCN1C(=O)[C@H](Cc1ccccc1)NC(=O)[C@@H](N)Cc1ccccc1)C(C)C)C(C)C)C(C)C)C(=O)N[C@@H](Cc1ccccc1)C(=O)N[C@H]1CSSC[C@@H](C(=O)O)NC(=O)[C@H](CCCCN)NC(=O)[C@H](CCCCN)NC(=O)[C@H](CO)NC(=O)[C@H]([C@@H](C)CC)NC(=O)[C@H]([C@@H](C)O)NC1=O has an MIC of > 128 µM (10231; 18 h, 37 °C).
The MIC of `pneumocandin K` is reported as 0.2 µg/mL (broth microdilution, resazurin; ATCC 10231; 24 h, 35 °C).
CC[C@H](C)[C@H](NC(=O)[C@H](CCCCN)NC(=O)[C@H](CCCCN)NC(=O)[C@H](CC(C)C)NC(=O)[C@@H](NC(=O)[C@H](CCCCN)NC(=O)[C@H](C)NC(=O)[C@H](C)NC(=O)[C@@H](NC(=O)CNC(=O)[C@H](C)NC(=O)[C@@H](NC(=O)[C@@H](NC(=O)[C@@H]1CCCN1C(=O)[C@H](Cc1ccccc1)NC(=O)[C@@H](N)Cc1ccccc1)[C@@H](C)CC)C(C)C)C(C)C)C(C)C)C(=O)N[C@@H](Cc1ccccc1)C(=O)N[C@H]1CSSC[C@@H](C(=O)O)NC(=O)[C@H](CCCCN)NC(=O)[C@H](CCCCN)NC(=O)[C@H](CO)NC(=O)[C@H]([C@@H](C)CC)NC(=O)[C@H]([C@@H](C)O)NC1=O has an MIC of > 128 µM (10231; 18 h, 37 °C).
CC[C@H](C)[C@H](NC(=O)[C@H](CO)NC(=O)[C@@H](NC(=O)[C@H](C)NC(=O)[C@H](CCC(N)=O)NC(=O)CNC(=O)[C@@H](NC(=O)[C@@H](NC(=O)CNC(=O)[C@@H](NC(=O)[C@H](C)NC(=O)[C@@H]1CCCN1C(=O)CNC(=O)[C@H](C)NC(=O)[C@H](CCCCN)NC(=O)[C@@H](NC(=O)[C@@H](NC(=O)CNC(=O)[C@H](CC(=O)O)NC(=O)[C@H](CCCNC(=N)N)NC(=O)[C@@H](NC(=O)[C@H](CCCCN)NC(=O)[C@H](CCCNC(=N)N)NC(=O)CNC(=O)[C@@H](NC(=O)[C@H](CCCCN)NC(=O)[C@H](CCC(=O)O)NC(=O)[C@@H](NC(=O)[C@H](CCCCN)NC(=O)[C@H](CCCCN)NC(=O)[C@H](CC(C)C)NC(=O)[C@H](Cc1ccccc1)NC(=O)[C@H](CCCCN)NC(=O)[C@H](Cc1c[nH]c2ccccc12)NC(=O)[C@@H](N)CCCNC(=N)N)[C@@H](C)CC)C(C)C)C(C)C)C(C)C)[C@@H](C)CC)C(C)C)C(C)C)C(C)C)[C@@H](C)O)C(=O)N[C@@H](Cc1ccc(O)cc1)C(=O)N[C@@H](CCCCN)C(N)=O gave an MIC of 72.5 ± 35.2 µg/mL (broth microdilution; ATCC 90028; 20 h, 37 °C).
